Experimental data pooled from the literature.
Each line is one published result; not all experiments were run side by side. ± gives the spread as reported.

Compound	test	test system	setting	tissue uptake
N#C[C@@H]1CC(F)(F)CN1C(=O)CNC(=O)c1ccnc2ccc(OCCCN3CCN(C(=O)CN4CCN(CC(N)=O)CCN(CC(N)=O)CCN(CC(N)=O)CC4)CC3)cc12 [lead-203 labelled]	–	male NRG mice, HEK293T-hFAP tumour, liver	intravenous, 100 pmol, 1 h, ex vivo, unblocked	1.02 ± 0.11 %IA/g
CC(C)C[C@@H](NC(=O)[C@@H](CC(C)C)NC(=O)[C@@H](CC(=O)O)NC(=O)[C@@H](CC(C)C)NC(=O)[C@@H](CC(C)C)NC(=O)[C@@H](CC(C)C)NC(=O)[C@H](NC(=O)[C@@H](CC(=O)O)NC(=O)[C@H](NC(=O)[C@H]1CCCN1C(=O)[C@@H](Cc1ccccc1)NC(=O)[C@@H](CC(C)C)NC(=O)[C@@H](CC(C)C)NC(=O)[C@@H](CC(=O)O)NC(=O)[C@@H](CC(C)C)NC(=O)[C@@H](Cc1ccc(O)cc1)NC(=O)[C@@H](C)NC(=O)[C@@H](CCCNC(=N)N)NC(=O)[C@@H](Cc1c[nH]c2ccccc12)NC(=O)[C@H]1CCCN1C(=O)[C@@H](CC(N)=O)NC(=O)[C@@H](CCC(N)=O)NC(=O)[C@@H](CC(=O)O)NC(=O)[C@@H](CC(=O)O)NC(=O)[C@@H](CSC1CC(=O)N(CCNC(=O)CN2CCN(CC(=O)O)CCN(CC(=O)O)CC2)C1=O)NC(=O)[C@@H](C)N)[C@H](C)O)[C@H](C)O)C(=O)N[C@H](Cc1c[nH]c2ccccc12)C(=O)O (stereo partly drawn) [copper-64 labelled]	–	C57BL/6 mice, female, B16-F10 melanoma, blood	intravenous, 12 h	11.6 %ID/g
CCCC[C@@H]1NC(=O)[C@@H](CC(C)C)NC(=O)[C@H](CCCCNC(=O)CN2CCN(CC(=O)O)CCN(CC(=O)O)CC2)NC(=O)NNC(=O)[C@H](Cc2c[nH]cn2)NC(=O)[C@@H](Cc2c[nH]c3ccccc23)NC1=O [copper-64 labelled]	–	Balb/c mice, lungs	intravenous, dose not given	1.14 ± 0.58 %ID/g
C[C@@H](O)[C@@H]1NC(=O)[C@H](CCCCN)NC(=O)[C@@H](Cc2c[nH]c3ccccc23)NC(=O)[C@H](Cc2ccc(O)cc2)NC(=O)[C@@H](NC(=O)[C@@H](Cc2ccccc2)NC(=O)CN2CCN(CC(=O)O)CCN(CC(=O)O)CCN(CC(=O)O)CC2)CSSC[C@@H](C(=O)N[C@H](CO)[C@@H](C)O)NC1=O [gallium-67 labelled]	gamma counting	ICR mice, male, muscle	iv, 11 kBq/mouse, 1 h	0.16 ± 0.03 %ID/g
N#C[C@@H]1CC(F)(F)CN1C(=O)CNC(=O)c1ccnc2ccc(OCCCN3CCN(C(=S)Nc4ccc(C[C@H]5CN(CC(N)=O)CCN(CC(N)=O)CCN(CC(N)=O)CCN5CC(N)=O)cc4)CC3)cc12 [lead-203 labelled]	–	male NRG mice HEK293T-hFAP tumour, bladder	intravenous, 100 pmol, 1 h, unblocked	8.11 ± 7.22 %ID/g
Cc1cc(-c2ccc(NC(=O)CC[C@H](NC(=O)CN3CCN(CC(=O)O)CCN(CC(=O)O)CCN(CC(=O)O)CC3)C(=O)NCC(=O)N[C@@H](CC(N)=O)C(=O)N[C@H](C(=O)N[C@H](C(=O)N[C@@H](CCCNC(=N)N)C(=O)N[C@@H](CCC(N)=O)C(=O)O)C(C)C)C(C)C)c(C)c2)ccc1/N=N/c1ccc2c(S(=O)(=O)O)cc(S(=O)(=O)O)c(N)c2c1O [copper-64 labelled]	–	nude mice, muscle	intravenous, 4 h	2.69 ± 0.44 %ID/g
CC(C)C[C@@H]1NC(=O)[C@H](CC(=O)O)NC(=O)CNC(=O)[C@H](CCCNC(=N)N)NC(=O)[C@H](Cc2ccc(O)cc2)NC(=O)[C@H](CCCCNC(=O)CCc2cn(CCCNC(=O)CCP(=O)(O)CN3CCN(CP(=O)(O)CCC(=O)NCCCn4cc(CCC(=O)NCCCC[C@H]5C(=O)N[C@@H](Cc6ccc(O)cc6)C(=O)N[C@@H](CCCNC(=N)N)C(=O)NCC(=O)N[C@@H](CC(=O)O)C(=O)N[C@@H](CC(C)C)C(=O)N[C@@H](C)C(=O)N[C@@H](Cc6ccc(O)cc6)C(=O)N6CCC[C@@H]6C(=O)N5C)nn4)CCN(CP(=O)(O)CCC(=O)NCCCn4cc(CCC(=O)NCCCC[C@H]5C(=O)N[C@@H](Cc6ccc(O)cc6)C(=O)N[C@@H](CCCNC(=N)N)C(=O)NCC(=O)N[C@@H](CC(=O)O)C(=O)N[C@@H](CC(C)C)C(=O)N[C@@H](C)C(=O)N[C@@H](Cc6ccc(O)cc6)C(=O)N6CCC[C@@H]6C(=O)N5C)nn4)CC3)nn2)N(C)C(=O)[C@H]2CCCN2C(=O)[C@H](Cc2ccc(O)cc2)NC(=O)[C@H](C)NC1=O [gallium-68 labelled]	PET imaging	SCID mice with H2009 tumour, right kidney	75 min	22.2 %ID/g
CCCC[C@@H]1NC(=O)[C@@H](CC(C)C)NC(=O)[C@H](CCCCNC(=O)CN2CCN(CC(=O)O)CCN(CC(=O)O)CC2)NC(=O)[C@@H](CO)NC(=O)[C@H](Cc2c[nH]cn2)NC(=O)[C@@H](Cc2c[nH]c3ccccc23)NC1=O [copper-64 labelled]	–	Balb/c mice, lungs	intravenous, dose not given	33.6 ± 15.9 %ID/g
CC(C)C[C@H](NC(=O)[C@@H](CCCCNC(=O)[C@@H](Cc1ccccc1)NC(=O)CCCCCNC(=O)CN1CCN(CC(=O)O)CCN(CC(=O)O)CCN(CC(=O)O)CC1)NC(=O)[C@H](Cc1ccc(O)cc1)NC(=O)[C@H](CO)NC(=O)[C@H](Cc1c[nH]c2ccccc12)NC(=O)[C@H](Cc1c[nH]cn1)NC(=O)[C@@H]1CCC(=O)N1)C(=O)N[C@@H](CCCNC(=N)N)C(=O)N1CCC[C@H]1C(=O)NCC(N)=O [indium-111 labelled]	–	female athymic nude mice, stomach	intravenous, 0.037 MBq, 0.5 h	4.2 ± 2.68 %ID/g

Repeated from above:
Compound	test	test system	setting	tissue uptake
N#C[C@@H]1CC(F)(F)CN1C(=O)CNC(=O)c1ccnc2ccc(OCCCN3CCN(C(=O)CN4CCN(CC(N)=O)CCN(CC(N)=O)CCN(CC(N)=O)CC4)CC3)cc12 [lead-203 labelled]	–	male NRG mice, HEK293T-hFAP tumour, liver	intravenous, 100 pmol, 1 h, ex vivo, unblocked	1.02 ± 0.11 %IA/g
